# Measured values collected from several papers.
# A part holds a random share of what one study measured. Several values in a cell are separate wells, animals, samples, runs or records.

# Study 1 — mode: inhibitor; concentration: 20 µM
# Target: Replicase polyprotein 1ab, nsp12 with nsp7/nsp8 (rep, Severe acute respiratory syndrome coronavirus 2, UniProt P0DTD1)
SMILES,inhibition
CO[C@@H]1[C@H](OC(=O)NC(=O)CCl)CC[C@]2(CO2)[C@H]1[C@@]1(C)O[C@@H]1CC=C(C)C,-0.45% and -0.47%
COc1ccc([C@]2(O)CC[C@@H](N3CC[C@@H](NC(=O)CNC(=O)c4cccc(C(F)(F)F)c4)C3)CC2)cn1,2.27%
O=C1c2c(O)cccc2Cc2cccc(O)c21,58%
CC(C)C[C@H](NC(=O)OCC1c2ccccc2-c2ccccc21)C(=O)O,-0.38% and 3.03%
C[C@H](CCC(=O)O)[C@H]1CC[C@H]2[C@@H]3C(=O)C[C@@H]4CC(=O)CC[C@]4(C)[C@H]3CC(=O)[C@]12C,2.76%
C[C@H]1Oc2cc(cnc2N)-c2c(nn(C)c2C#N)CN(C)C(=O)c2ccc(F)cc21,4.82% and -2.65%
CCOc1ccc(-n2c([C@@H](C)N(Cc3cccnc3)C(=O)Cc3ccc(OC(F)(F)F)cc3)nc3ncccc3c2=O)cc1 (racemic),1.03%
Cn1nccc1Nc1nccc(-c2ccn([C@H](CO)c3ccc(Cl)c(F)c3)c(=O)c2)n1,-5.7% and 12.2%
CCOC(=O)C1=C(N)Oc2ccc(Br)cc2[C@H]1[C@H](C#N)C(=O)OCC,1.2% and -4.93%
O=C(c1ccc2nccnc2c1)N1CCCCC1,-0.92% and -5.72%
CN1C(=O)N(c2ccc(C#N)c(C(F)(F)F)c2)C(=O)[C@@]1(CO)c1ccccc1,2.28%
CCS(=O)(=O)N(C)[C@H]1c2cc(C#N)ccc2OC(C)(C)[C@@H]1O (racemic),2.96%
CC1=C(C(=O)O)N2C(=O)[C@@H](NC(=O)[C@H](N)C3=CCC=CC3)[C@H]2SC1,10.9% and -1.45%

# Study 2 — read-out: enzyme activity; mode: inhibitor; concentration: 20 µM; setting: hit confirmation, no DTT
# Target: Replicase polyprotein 1ab, main protease (rep, Severe acute respiratory syndrome coronavirus 2, UniProt P0DTD1)
SMILES,inhibition
CCOC(=O)Cc1ccc(-c2ccccc2)cc1,99.8%
N=C(N)NN=C1C=CC(=NNC(N)=S)C=C1,93.3%
CC(=O)[O][Hg][c]1ccccc1,100%
O=C1C2CC=CCC2C(=O)N1SC(Cl)(Cl)Cl (centres unmarked),100%

# Study 3 — cell line: HEK-293T; read-out: pseudovirus infection; organism: VSV pseudotyped with SARS-CoV-2 spike; concentration: 10 µM; time: 16 h; relative to: vehicle-treated
SMILES,GFP-positive cells [%]
CC(=O)OCC(CCn1cnc2cnc(N)nc21)COC(C)=O,96.5
CC[C@]1(O)C[C@@H]2CN(CCc3c([nH]c4ccccc34)[C@@](C(=O)OC)(c3cc4c(cc3OC)N(C)[C@H]3[C@@](O)(C(=O)OC)[C@H](OC(C)=O)[C@]5(CC)C=CCN6CC[C@]43[C@@H]65)C2)C1,1.32
COc1ccc(CN(C(=O)[C@@H](N)Cc2c(C)cc(C(N)=O)cc2C)[C@@H](C)c2ncc(-c3ccccc3)[nH]2)cc1C(=O)O,78.9
COC(=O)N[C@H](C(=O)N1CCC[C@H]1c1nc(-c2ccc(-c3ccc(-c4c[nH]c([C@@H]5CCCN5C(=O)[C@@H](NC(=O)OC)C(C)C)n4)cc3)cc2)c[nH]1)C(C)C,85.7
O=C(O)[C@@H](S)[C@@H](S)C(=O)O,81.7

# Further values, each from its own experiment
Compound,tested on,assay,test system,conditions,measurement,value
Cc1ccc2c(NC(C)c3ccccc3)nc(N3CCNCC3)nc2c1 (centres unmarked),SARS-CoV-2,cytopathic effect,USA_WA1/2020,retest 8-point,efficacy,89.3%
CCn1c(-c2nonc2N)nc2c(C#CC(C)(C)O)ncc(OC[C@H]3CCCNC3)c21,"Replicase polyprotein 1ab, main protease (rep, Severe acute respiratory syndrome coronavirus 2, UniProt P0DTD1)","reporter gene (mKate2), inhibitor",,20 µM,inhibition,0.115%
CCc1ccc(Sc2cc(C(=O)NCCCN3CCCC(C)C3)c3ccccc3n2)cc1 (centres unmarked),SARS-CoV-2,cytopathic effect,USA_WA1/2020,,AC50,12.6 µM
CC[C@H](C)[C@H](NC(=O)[C@H](CC(C)C)NC(=O)[C@H](Cc1c[nH]c2ccccc12)NC(=O)[C@H](CCC(N)=O)NC(=O)[C@@H](NC(=O)[C@H](Cc1ccccc1)NC(=O)[C@H](C)NC(=O)[C@H](CCCCNC(=O)COCCOCCNC(=O)COCCOCCNC(=O)CC[C@H](NC(=O)CCCCCCCCCCCCCCCCCCC(=O)O)C(=O)O)NC(=O)[C@H](CCC(N)=O)NC(=O)[C@H](C)NC(=O)[C@@H](NC(=O)[C@H](CCCCN)NC(=O)[C@H](CC(=O)O)NC(=O)[C@H](CC(C)C)NC(=O)C(C)(C)NC(=O)[C@@H](NC(=O)[C@H](CO)NC(=O)[C@H](Cc1ccc(O)cc1)NC(=O)[C@H](CC(=O)O)NC(=O)[C@H](CO)NC(=O)[C@@H](NC(=O)[C@H](Cc1ccccc1)NC(=O)[C@@H](NC(=O)CNC(=O)[C@H](CCC(=O)O)NC(=O)C(C)(C)NC(=O)[C@@H](N)Cc1ccc(O)cc1)[C@@H](C)O)[C@@H](C)O)[C@@H](C)CC)[C@@H](C)CC)C(C)C)C(=O)N[C@@H](C)C(=O)NCC(=O)NCC(=O)N1CCC[C@H]1C(=O)N[C@@H](CO)C(=O)N[C@@H](CO)C(=O)NCC(=O)N[C@@H](C)C(=O)N1CCC[C@H]1C(=O)N1CCC[C@H]1C(=O)N1CCC[C@H]1C(=O)N[C@@H](CO)C(N)=O,,,healthy human,"8.0 mg, single ascending dose",abdominal distension,28.6%
